Published values from different studies.
Each numbered part is a random draw from the data of one study; scales do not carry over between parts.
Sequence of UniProt P57058 (whole entry, looked up): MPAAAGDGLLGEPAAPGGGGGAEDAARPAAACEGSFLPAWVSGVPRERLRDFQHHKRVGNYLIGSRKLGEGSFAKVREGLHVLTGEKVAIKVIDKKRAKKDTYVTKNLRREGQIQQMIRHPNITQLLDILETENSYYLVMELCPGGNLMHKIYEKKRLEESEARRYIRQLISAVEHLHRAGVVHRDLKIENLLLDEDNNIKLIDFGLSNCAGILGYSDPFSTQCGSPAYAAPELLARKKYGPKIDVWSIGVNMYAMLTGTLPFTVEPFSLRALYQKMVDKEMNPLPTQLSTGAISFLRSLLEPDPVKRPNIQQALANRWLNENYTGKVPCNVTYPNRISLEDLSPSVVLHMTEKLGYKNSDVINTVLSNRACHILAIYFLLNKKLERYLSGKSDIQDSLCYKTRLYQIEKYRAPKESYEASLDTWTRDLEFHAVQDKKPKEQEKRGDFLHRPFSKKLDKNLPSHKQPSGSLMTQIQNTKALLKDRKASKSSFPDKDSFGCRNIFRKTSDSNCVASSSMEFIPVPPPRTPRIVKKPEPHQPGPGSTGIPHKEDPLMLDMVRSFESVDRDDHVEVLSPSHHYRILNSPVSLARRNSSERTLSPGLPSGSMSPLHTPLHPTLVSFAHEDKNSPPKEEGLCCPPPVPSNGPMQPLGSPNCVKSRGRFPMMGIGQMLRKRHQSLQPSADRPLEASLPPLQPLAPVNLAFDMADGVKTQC
Sequence of UniProt P54756 (whole entry, looked up): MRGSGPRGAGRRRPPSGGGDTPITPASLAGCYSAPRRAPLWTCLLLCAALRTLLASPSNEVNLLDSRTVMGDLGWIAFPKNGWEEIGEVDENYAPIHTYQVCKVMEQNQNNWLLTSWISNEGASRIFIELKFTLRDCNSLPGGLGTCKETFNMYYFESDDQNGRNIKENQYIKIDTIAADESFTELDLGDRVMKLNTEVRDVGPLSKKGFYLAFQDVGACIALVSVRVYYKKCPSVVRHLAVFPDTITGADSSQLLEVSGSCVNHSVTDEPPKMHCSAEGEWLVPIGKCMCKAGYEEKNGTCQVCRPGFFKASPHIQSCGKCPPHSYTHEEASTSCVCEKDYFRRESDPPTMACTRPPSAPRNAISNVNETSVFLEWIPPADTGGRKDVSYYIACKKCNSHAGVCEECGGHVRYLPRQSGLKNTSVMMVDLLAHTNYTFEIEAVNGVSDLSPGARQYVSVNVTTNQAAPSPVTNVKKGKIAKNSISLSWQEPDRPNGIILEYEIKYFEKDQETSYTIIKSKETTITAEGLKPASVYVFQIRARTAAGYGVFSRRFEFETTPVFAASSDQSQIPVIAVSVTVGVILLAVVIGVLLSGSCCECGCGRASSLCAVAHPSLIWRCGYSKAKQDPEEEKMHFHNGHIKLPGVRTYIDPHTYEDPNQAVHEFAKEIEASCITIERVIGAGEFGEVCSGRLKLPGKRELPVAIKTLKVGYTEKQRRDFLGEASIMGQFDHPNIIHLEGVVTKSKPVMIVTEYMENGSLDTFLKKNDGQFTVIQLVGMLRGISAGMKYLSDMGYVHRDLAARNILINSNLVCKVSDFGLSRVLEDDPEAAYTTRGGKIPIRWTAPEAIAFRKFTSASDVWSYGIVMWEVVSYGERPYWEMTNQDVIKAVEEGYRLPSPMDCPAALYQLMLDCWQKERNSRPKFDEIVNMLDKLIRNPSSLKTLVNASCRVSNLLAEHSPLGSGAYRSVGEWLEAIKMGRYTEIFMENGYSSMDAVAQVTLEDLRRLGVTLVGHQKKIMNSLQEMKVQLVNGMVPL
Sequence of UniProt O76039 (whole entry, looked up): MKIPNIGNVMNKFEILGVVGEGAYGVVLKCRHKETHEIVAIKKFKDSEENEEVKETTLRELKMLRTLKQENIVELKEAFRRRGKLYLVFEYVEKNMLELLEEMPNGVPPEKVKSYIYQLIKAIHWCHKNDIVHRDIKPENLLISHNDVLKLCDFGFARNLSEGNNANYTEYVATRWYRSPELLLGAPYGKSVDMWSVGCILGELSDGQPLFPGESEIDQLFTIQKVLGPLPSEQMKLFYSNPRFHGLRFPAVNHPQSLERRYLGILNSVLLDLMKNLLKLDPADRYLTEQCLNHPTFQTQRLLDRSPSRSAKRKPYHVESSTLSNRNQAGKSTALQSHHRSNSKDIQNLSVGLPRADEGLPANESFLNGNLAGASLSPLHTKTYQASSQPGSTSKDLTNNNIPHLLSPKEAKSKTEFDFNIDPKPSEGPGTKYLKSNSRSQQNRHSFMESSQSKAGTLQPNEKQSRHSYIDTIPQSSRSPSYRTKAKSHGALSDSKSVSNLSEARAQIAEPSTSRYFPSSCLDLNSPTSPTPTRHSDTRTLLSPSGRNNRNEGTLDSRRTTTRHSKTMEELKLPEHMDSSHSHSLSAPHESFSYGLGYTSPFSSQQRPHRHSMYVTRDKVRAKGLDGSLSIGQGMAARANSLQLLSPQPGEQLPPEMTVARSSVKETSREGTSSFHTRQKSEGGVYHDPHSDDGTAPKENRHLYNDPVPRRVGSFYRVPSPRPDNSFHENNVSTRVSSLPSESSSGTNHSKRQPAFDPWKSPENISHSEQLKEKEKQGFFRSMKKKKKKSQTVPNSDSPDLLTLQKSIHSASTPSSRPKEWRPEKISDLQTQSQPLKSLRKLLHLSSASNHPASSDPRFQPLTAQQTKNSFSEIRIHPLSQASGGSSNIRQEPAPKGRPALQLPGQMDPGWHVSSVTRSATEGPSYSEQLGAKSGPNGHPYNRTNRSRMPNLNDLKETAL
Sequence of UniProt P41240 (whole entry, looked up): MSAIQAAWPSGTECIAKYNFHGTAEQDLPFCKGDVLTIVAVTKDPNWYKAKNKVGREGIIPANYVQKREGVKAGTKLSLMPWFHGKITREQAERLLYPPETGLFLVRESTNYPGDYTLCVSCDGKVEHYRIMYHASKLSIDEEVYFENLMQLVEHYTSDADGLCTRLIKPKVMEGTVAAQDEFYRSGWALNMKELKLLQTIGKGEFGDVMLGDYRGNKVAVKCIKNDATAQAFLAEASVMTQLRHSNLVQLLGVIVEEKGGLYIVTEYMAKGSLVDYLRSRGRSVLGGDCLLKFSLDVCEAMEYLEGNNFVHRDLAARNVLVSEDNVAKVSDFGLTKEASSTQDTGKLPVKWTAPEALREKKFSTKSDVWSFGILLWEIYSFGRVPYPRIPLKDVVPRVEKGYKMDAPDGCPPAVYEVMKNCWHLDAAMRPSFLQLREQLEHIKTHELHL
Sequence of UniProt Q08881 (whole entry, looked up): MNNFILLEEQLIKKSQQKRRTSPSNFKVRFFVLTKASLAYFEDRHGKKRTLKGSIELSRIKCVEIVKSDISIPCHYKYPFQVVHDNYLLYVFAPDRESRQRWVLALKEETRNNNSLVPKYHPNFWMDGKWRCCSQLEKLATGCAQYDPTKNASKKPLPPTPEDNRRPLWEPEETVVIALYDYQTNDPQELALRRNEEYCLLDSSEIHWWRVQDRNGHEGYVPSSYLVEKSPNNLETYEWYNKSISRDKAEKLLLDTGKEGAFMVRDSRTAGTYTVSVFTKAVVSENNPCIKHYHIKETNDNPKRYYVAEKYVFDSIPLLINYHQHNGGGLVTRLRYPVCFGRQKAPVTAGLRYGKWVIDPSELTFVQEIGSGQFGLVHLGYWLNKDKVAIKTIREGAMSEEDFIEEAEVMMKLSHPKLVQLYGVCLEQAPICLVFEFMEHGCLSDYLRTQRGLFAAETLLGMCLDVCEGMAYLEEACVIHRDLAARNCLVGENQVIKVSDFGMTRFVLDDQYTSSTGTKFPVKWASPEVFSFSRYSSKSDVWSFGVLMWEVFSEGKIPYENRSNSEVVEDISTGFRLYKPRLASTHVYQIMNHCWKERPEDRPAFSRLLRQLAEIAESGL
Sequence of UniProt Q9BZL6 (whole entry, looked up): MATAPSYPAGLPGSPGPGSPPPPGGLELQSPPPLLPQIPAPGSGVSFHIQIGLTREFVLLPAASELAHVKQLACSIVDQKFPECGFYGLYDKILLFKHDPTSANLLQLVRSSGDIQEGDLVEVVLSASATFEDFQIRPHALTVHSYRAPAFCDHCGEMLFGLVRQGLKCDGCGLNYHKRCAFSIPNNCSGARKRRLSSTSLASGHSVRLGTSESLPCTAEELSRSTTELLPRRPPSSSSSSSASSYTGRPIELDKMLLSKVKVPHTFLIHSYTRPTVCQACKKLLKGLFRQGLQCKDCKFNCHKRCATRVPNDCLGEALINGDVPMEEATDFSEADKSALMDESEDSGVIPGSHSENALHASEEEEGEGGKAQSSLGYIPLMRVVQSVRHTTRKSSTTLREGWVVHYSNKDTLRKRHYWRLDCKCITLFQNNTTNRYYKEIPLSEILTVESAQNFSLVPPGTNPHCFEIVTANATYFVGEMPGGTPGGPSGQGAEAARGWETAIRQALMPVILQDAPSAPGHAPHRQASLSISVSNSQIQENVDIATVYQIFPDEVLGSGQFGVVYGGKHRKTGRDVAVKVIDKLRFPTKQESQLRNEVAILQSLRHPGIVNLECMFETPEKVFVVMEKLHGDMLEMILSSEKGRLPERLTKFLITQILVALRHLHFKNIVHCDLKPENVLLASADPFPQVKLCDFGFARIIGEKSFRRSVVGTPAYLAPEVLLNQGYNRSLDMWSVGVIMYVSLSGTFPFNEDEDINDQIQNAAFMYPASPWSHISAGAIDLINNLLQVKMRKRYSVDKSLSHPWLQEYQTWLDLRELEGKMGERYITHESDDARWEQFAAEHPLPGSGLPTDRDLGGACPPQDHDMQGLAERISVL

Block 1 — tested at: 1 µM
SMILES: Cc1ccc(NC(=O)c2ccnc(C(F)(F)F)c2)cc1-c1cc(OCCO)nc(N2CCOCC2)c1
The remaining binding was 100% (PDPK1 (Homo sapiens, UniProt O15530); competitive binding panel; relative to: vehicle).
The remaining binding was 96% (STK38L (Homo sapiens, UniProt Q9Y2H1); competitive binding panel, measured: NDR2; relative to: vehicle).
CSNK1A1L (Homo sapiens, UniProt Q8N752); competitive binding panel; relative to: vehicle — remaining binding: 100%.
It gave 100% for remaining binding (HUNK (Homo sapiens, UniProt P57058); competitive binding panel; relative to: vehicle).
The remaining binding was 97% (IKBKB (Homo sapiens, UniProt O14920); competitive binding; IKK-beta).
The remaining binding was 95% (CSK (Homo sapiens, UniProt P41240); competitive binding panel; relative to: vehicle).
CDKL5 (Homo sapiens, UniProt O76039); competitive binding panel; relative to: vehicle — remaining binding: 100%.
The remaining binding was 92% (EPHA5 (Homo sapiens, UniProt P54756); competitive binding panel; relative to: vehicle).

Block 2 — host: human; medium: microsomes or S9; tested at: 2 µM; time: 0.5 h
`OC(Cn1ccnc1)c1ccc(Cl)cc1Cl` (stereo not shown) gave a remaining compound of 77.5%.
For `CC1(C)CC(n2[nH]c(=O)c3c2N=C(O)CSC3C2CCCCC2)CCO1` (stereo not shown), the remaining compound was 56.5%.
For `O=C(Cn1cnc2ccccc2c1=O)NCCn1ccc2cc(Br)ccc21`, the remaining compound was 1.67%.
For `O=C(c1ccc(F)cc1)c1c2nc[nH]c(=O)c2c2ccccn12`, the remaining compound was 43.2%.
`Cc1nc2[nH]c(CCCCOCc3ccccc3)nc2cc1Br` gave a remaining compound of 5.81%.
`N#Cc1ccc(-c2ccccc2CCOc2ncccn2)cc1` has a remaining compound of 27.7%.
`COc1cc(=O)n2c(c1C(=O)Nc1ccc(C(F)(F)F)cc1)CCCC2` gave a remaining compound of 54.9%.
`CCNC(=O)N1CCC(CCOC)(NC(=O)NCC2CCCO2)CC1` (stereo not shown) gave a remaining compound of over 100%.
For `CC(C)COc1cc(=O)n2c(c1C(=O)N1CCN(c3ccccn3)CC1)CCCCC2`, the remaining compound was 35.8%.
For `O=c1ccc(-c2ccc(S(=O)(=O)Nc3cc(F)ccc3F)o2)n[nH]1`, the remaining compound was 33.3%.

Block 3 — observed: enzyme activity; mode: inhibitor; tested at: 0.5 µM; relative to: control
Target: Serine/threonine-protein kinase pim-2 (PIM2, Homo sapiens, UniProt Q9P1W9)
Sequence of UniProt Q9P1W9 (whole entry, looked up): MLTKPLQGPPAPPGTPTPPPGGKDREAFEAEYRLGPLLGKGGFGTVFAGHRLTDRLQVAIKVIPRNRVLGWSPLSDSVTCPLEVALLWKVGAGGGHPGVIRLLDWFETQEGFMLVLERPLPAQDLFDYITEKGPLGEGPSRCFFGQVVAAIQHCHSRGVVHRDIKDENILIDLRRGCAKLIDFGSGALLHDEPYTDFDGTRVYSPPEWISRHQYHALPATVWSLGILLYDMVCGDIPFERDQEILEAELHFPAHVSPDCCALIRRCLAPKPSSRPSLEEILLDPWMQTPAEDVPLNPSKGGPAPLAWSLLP
`N#Cc1c(NC(=O)c2cccc3ccccc23)sc2c1CCCC2` has a remaining activity of 104%.
`O=C(NC(NC(=S)Nc1ccc(F)c([N+](=O)[O-])c1)C(Cl)(Cl)Cl)C(c1ccccc1)c1ccccc1` (stereo not shown) has a remaining activity of 117%.
The remaining activity of `Ic1cccc(CSc2nnc(-c3ccncc3)o2)c1` is reported as 102%.
`Cn1nc2c3c(cccc31)C(=O)c1ccccc1-2` has a remaining activity of 105%.
`Cc1cn(-c2cc(NC(=O)c3ccc(C)c(Nc4nccc(-c5cccnc5)n4)c3)cc(C(F)(F)F)c2)cn1` has a remaining activity of 98.1%.
`O=c1cc(-c2cccc3c2Sc2ccccc2S3)oc(N2CCOCC2)c1` has a remaining activity of 118%.
`C[C@@H]1CCN(C(=O)CC#N)C[C@@H]1N(C)c1ncnc2[nH]ccc12` has a remaining activity of 116%.
For `N#C/C(=C\c1ccc(O)c(O)c1)C(=O)NCc1ccccc1`, the remaining activity was 97.1%.
`O=C(Nc1cccc(Nc2nccc(Nc3cccc(C(F)(F)F)c3)n2)c1)C1CC1` has a remaining activity of 112%.
The remaining activity of `Cc1cc2ncc(-c3ccccc3)nc2cc1C` is reported as 81%.
The remaining activity of `O=C1C(Cl)=C(N2C(=O)CCC2=O)C(=O)c2ccccc21` is reported as 123%.
The remaining activity of `CN(C)C[C@H]1CCn2c(c(C3=C(c4cn(C)c5ccccc45)C(=O)NC3=O)c3ccccc32)C1` is reported as 102%.
`CCN(CC)CCNC(=O)c1c(C)[nH]c(/C=C2\C(=O)Nc3ccc(Cl)cc32)c1C` gave a remaining activity of 101%.
With `O=C1c2ccccc2-c2n[nH]c3cccc1c23` the remaining activity was 85.9%.
With `Cc1nc2cc3nc(-c4cccs4)cnc3cc2n1C` the remaining activity was 114%.
With `CCN(CC)C(=O)c1ccc(Nc2nc(OCC3CCCCC3)c3[nH]cnc3n2)cc1` the remaining activity was 105%.
For `COc1cc2ncnc(Nc3cccc(Cl)c3)c2cc1OC`, the remaining activity was 104%.
`c1ccc(-c2[nH]ncc2-c2ccnc3ccccc23)nc1` has a remaining activity of 115%.
`COc1cc2ncnc(Nc3ccc(O)c(Br)c3)c2cc1OC` gave a remaining activity of 94.1%.
The remaining activity of `CCOc1nc(NC(=O)Cc2cc(OC)ccc2OC)cc(N)c1C#N` is reported as 104%.
`c1ccc(-c2cnc(Nc3ccc(OCCN4CCCC4)cc3)s2)cc1` gave a remaining activity of 108%.
With `COc1cc2c(cc1OC)-c1[nH]nc(Nc3cccc(F)c3)c1C2` the remaining activity was 119%.
`Nc1cccc(-c2cc3c(Oc4cccc(O)c4)ncnc3[nH]2)c1` gave a remaining activity of 108%.

Block 4 — observed: cell-free assay; technique: competition with immobilised ligand; tested at: 1 µM
SMILES: C[C@H](NC(=O)c1cnc2n1[C@](C)(Cc1ccc(C#N)cc1)C(=O)N2c1cc(Cl)c(F)c(Cl)c1)C(=O)NC1(c2ccccn2)CC1
The remaining binding was 100% (NIM1K (Homo sapiens, UniProt Q8IY84)).
Cyclin-dependent kinase 4, with cyclin D1 (CDK4, Homo sapiens, UniProt P11802) — remaining binding: 100%.
MINK1 (Homo sapiens, UniProt Q8N4C8) — remaining binding: 100%.
It gave 100% for remaining binding (PRKD1 (Homo sapiens, UniProt Q15139)).
It gave 100% for remaining binding (STK25 (Homo sapiens, UniProt O00506)).
The remaining binding was 100% (BTK (Homo sapiens, UniProt Q06187)).
The remaining binding was 100% (ROS1 (Homo sapiens, UniProt P08922)).
It gave 100% for remaining binding (PRKD2 (Homo sapiens, UniProt Q9BZL6)).
The remaining binding was 100% (MAPK12 (Homo sapiens, UniProt P53778)).
AXL (Homo sapiens, UniProt P30530) — remaining binding: 100%.
The remaining binding was 59% (NEK1 (Homo sapiens, UniProt Q96PY6)).
It gave 92% for remaining binding (TAOK2 (Homo sapiens, UniProt Q9UL54)).
The remaining binding was 100% (MAST1 (Homo sapiens, UniProt Q9Y2H9)).
It gave 100% for remaining binding (PAK4 (Homo sapiens, UniProt O96013)).
For Ribosomal protein S6 kinase alpha-5, N-terminal kinase domain (RPS6KA5, Homo sapiens, UniProt O75582): remaining binding read 96%.
For ITK (Homo sapiens, UniProt Q08881): remaining binding read 83%.
The remaining binding was 100% (Tyrosine-protein kinase JAK1, JH1 (JAK1, Homo sapiens, UniProt P23458)).
For PRKCH (Homo sapiens, UniProt P24723): remaining binding read 90%.
It gave 100% for remaining binding (FGFR3 (Homo sapiens, UniProt P22607, G697C)).
STK33 (Homo sapiens, UniProt Q9BYT3) — remaining binding: 88%.
